Assay results gathered from unrelated publications.
Each numbered part is a random draw from the data of one study; scales do not carry over between parts. Positions count from the first letter of the parent shown.

Study 1 — method: aptamer microarray, sandwich; form: DNA with 2'F-ANA; sample: in vitro; concentration: 200 nM; together with: Cy3 exosite-II aptamer, 400 nM; reading: higher = stronger binding; endpoint: mean fluorescence intensity; sequence: GGTTGGTGTGGTTGG
Target: Prothrombin, mature alpha-thrombin (F2, Homo sapiens, UniProt P00734)
Notes: whole 15-mer aptamer, many near background
Modification = 2'F-ANA at 1 2 3 5 6 7 8 9 10 12 13 14; value = 49.3 a.u.
Modification = 2'F-ANA at 2 3 5 6 8 10 12 15; value = 57.8 a.u.
Modification = 2'F-ANA at 2 9 10 11 14 15; value = 147 a.u.
Modification = 2'F-ANA at 3 5 6 10 11 12 13 15; value = 64.5 a.u.
Modification = 2'F-ANA at 1 3 5 8 10 15; value = 48.4 a.u.
Modification = 2'F-ANA at 4 11 13; value = 210 a.u.
Modification = 2'F-ANA at 3 5 9 10 11 12 13 15; value = 69.8 a.u.
Modification = 2'F-ANA at 1 2 4 5 6 7 8 9 10 11 12 13 14; value = 50.9 a.u.
Modification = 2'F-ANA at 6 8 9 10 13 14 15; value = 98.7 a.u.
Modification = 2'F-ANA at 1 2 4 12 13 15; value = 204 a.u.
Modification = 2'F-ANA at 1 5 6 9 10 12 15; value = 50 a.u.
Modification = 2'F-ANA at 1 3 5 6 7 8 13 15; value = 54.5 a.u.
Modification = 2'F-ANA at 2 3 5 6 7 8 9 12 13; value = 158 a.u.
Modification = 2'F-ANA at 2 3 8 9 10 11 12 15; value = 372 a.u.
Modification = 2'F-ANA at 3 5 6 8 10 13 15; value = 61.3 a.u.
Modification = 2'F-ANA at 1 2 3 5 10 11 12 15; value = 63.7 a.u.
Modification = 2'F-ANA at 2 3 4 5 9 10 11 13 14; value = 54.4 a.u.
Modification = 2'F-ANA at 1 2 3 7 11 12; value = 420 a.u.
Modification = 2'F-ANA at 1 4 5 7 10 12 15; value = 46.8 a.u.
Modification = 2'F-ANA at 1 2 3 5 6 15; value = 80.8 a.u.
Modification = 2'F-ANA at 1 2 6 7 8 10 12 14 15; value = 47.9 a.u.
Modification = 2'F-ANA at 2 5 11 12 13 15; value = 96.6 a.u.
Modification = 2'F-ANA at 1 2 4 7 9 10 11 14; value = 53.4 a.u.
Modification = 2'F-ANA at 1 6 10 12 13 15; value = 78.2 a.u.
Modification = 2'F-ANA at 2 3 6 10 12 15; value = 388 a.u.

Study 2 — method: universal PBM; form: double-stranded DNA, one strand shown; sample: in vitro; concentration: not given; reading: higher = stronger binding; endpoint: E-score
Target: Sal-like protein 4, full length isoform B (SALL4, Homo sapiens, UniProt Q9UJQ4-2, residues 1-616)
Notes: 8-mer, flanks averaged, mean of replicates
Sequence = ACTCCTCA; value = -0.0641
Sequence = CTCGTGAA; value = 0.129
Sequence = CAAGTGGG; value = -0.128
Sequence = GAGTTGCA; value = -0.0623
Sequence = AGTCTCCA; value = -0.0347
Sequence = CATAATGG; value = 0.166
Sequence = CTATGCCA; value = 0.113
Sequence = CGTGAGGC; value = -0.208
Sequence = ACCATGGA; value = -0.166
Sequence = AGCCTGTA; value = 0.0308
Sequence = ATTAGTTC; value = 0.192
Sequence = GATGATGC; value = -0.0537
Sequence = AAGGTAAC; value = 0.0474
Sequence = GAACGGGA; value = -0.163
Sequence = GAGCTGAC; value = -0.246
Sequence = ACATTTCA; value = 0.293
Sequence = CCGGGTAG; value = -0.28
Sequence = ATTTATCG; value = 0.241
Sequence = AAGAAATT; value = 0.282
Sequence = TAGAAACA; value = 0.164
Sequence = CTCTAATA; value = 0.335
Sequence = CCCACAAC; value = -0.139
Sequence = ACACAACC; value = -0.0502
Sequence = ACTCGCCT; value = -0.152
Sequence = CCAATCAA; value = -0.0104

Study 3 — target: CCNA1, cyclin fold, Cln2 fusion (human); method: yeast growth competition, sequencing; sample: yeast; notes: strong parent motif; relative to: not given; reading: higher = stronger binding; endpoint: normalised enrichment score
Starting sequence: RBL2 docking peptide (human); STTRRRLFVENDS
Change = R5Q; value = 0.592
Change = V9C; value = 1.01
Change = F8R; value = 0.273
Change = T3Y; value = 0.648
Change = R5W; value = 0.182
Change = T3L; value = 0.289
Change = F8K; value = 0.256
Change = T2C; value = 0.317
Change = R6S; value = 0.231
Change = L7Q; value = 0.114
Change = R4E; value = 0.076
Change = R6A; value = 0.556
Change = N11S; value = 0.78
Change = V9Q; value = 0.37
Change = S13V; value = 0.651
Change = D12I; value = 0.428
Change = F8E; value = 0.434
Change = R4P; value = 0.0841
Change = D12H; value = 0.432
Change = E10D; value = 0.984
Change = R4G; value = -0.00946
Change = L7I; value = 0.62
Change = E10C; value = 0.386
Change = T3C; value = 0.955
Change = R6K; value = 0.428

Study 4 — method: RNA Bind-n-Seq; form: RNA; sample: in vitro; concentration: 1 µM; notes: whole 134-nt RNA, ends assumed; together with: 150 mM KCl; relative to: input library; reading: higher = stronger binding; endpoint: log2 enrichment
Target: Ras GTPase-activating protein-binding protein 1, RRM domain (G3BP1, Homo sapiens, UniProt Q13283)
Chain of UniProt Q13283 (whole entry, looked up): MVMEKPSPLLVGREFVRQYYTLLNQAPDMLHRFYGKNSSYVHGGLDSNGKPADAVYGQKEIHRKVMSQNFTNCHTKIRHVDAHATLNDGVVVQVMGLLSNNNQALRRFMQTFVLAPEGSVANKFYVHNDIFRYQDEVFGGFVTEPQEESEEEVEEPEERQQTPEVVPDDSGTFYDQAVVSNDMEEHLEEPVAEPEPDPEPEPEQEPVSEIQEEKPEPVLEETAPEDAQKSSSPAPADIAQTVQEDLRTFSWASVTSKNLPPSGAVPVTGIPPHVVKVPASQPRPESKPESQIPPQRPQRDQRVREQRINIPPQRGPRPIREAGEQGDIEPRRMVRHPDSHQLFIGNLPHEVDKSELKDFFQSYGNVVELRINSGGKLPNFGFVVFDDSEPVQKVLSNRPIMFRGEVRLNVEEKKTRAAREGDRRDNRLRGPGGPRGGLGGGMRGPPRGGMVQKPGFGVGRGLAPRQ
Sequence = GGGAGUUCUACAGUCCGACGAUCUCCUGUGCUACACAUCGUAUGUACCGAAUCGGGGAAAAAAAGGGGUGGGGUUUUUGGGGAAAGUAUUAUGUUACGCCGUUCGGAUCUGCAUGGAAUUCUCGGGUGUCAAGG; value = 0.761
Sequence = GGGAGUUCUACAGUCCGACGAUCAAGUCCUGUGCUACACAUCGUAUGUACCGAAUCGGCCCCGGGGCCCCGGGCCCCGGGAAAGUAUUAUGUUACGCCGUUCGGAUCUGCACUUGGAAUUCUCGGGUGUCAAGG; value = -0.752
Sequence = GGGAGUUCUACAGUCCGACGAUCAGGUCAUGGAUCAAAAAGAACAUAAAUUGAAUGGGAAGGUGAUUGAUCCUAAAAGGGCCAAAGCCAUGAAAACAAAAGAGCCGGUUAAAAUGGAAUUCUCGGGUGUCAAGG; value = -0.101
Sequence = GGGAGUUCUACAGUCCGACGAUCUGGGAGGUGGAUUUUGUUUAUUUUUUUAGCUCAUUUCCAGGGGUGGGAAUUUUUUUUUAAUAUGGGUCAUGAAUAAAGUUGUUUUUGAAAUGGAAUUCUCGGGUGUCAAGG; value = 1.66
Sequence = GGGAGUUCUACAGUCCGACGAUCAGUCCUGUGCUACACAUCGUAUGUACCGAAUCGGGCCCCCGGGCCCCCGGGCCCCCGGAAAGUAUUAUGUUACGCCGUUCGGAUCUGCACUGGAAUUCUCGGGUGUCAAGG; value = -0.746
Sequence = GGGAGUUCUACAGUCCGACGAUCAAGUCCUGUGCUACACAUCGUAUGUACCGAAUCGGAAAAAAAGGAAAGGAAAAAGGAAAGUAUUAUGUUACGCCGUUCGGAUCUGCACUUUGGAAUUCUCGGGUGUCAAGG; value = -0.0647
Sequence = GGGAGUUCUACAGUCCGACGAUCCUGUGCUACACAUCGUAUGUACCGAAUCGGGGCCCCCCCGGGCCCCCCCGGCCCCCCCGGGGAAAGUAUUAUGUUACGCCGUUCGGAUCUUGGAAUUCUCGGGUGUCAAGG; value = -0.549
Sequence = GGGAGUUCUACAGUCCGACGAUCGUCCUGUGCUACACAUCGUAUGUACCGAAUCGGAAAAAAAGGAAAAAAAGGUUUUUGGAAAGUAUUAUGUUACGCCGUUCGGAUCUGCACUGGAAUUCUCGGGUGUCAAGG; value = -0.111
Sequence = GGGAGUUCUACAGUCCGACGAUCCCUCAAGUCCUGUGCUACACAUCGUAUGUACCGAAUCGGUGGAAAGGAAAGGAAAGUAUUAUGUUACGCCGUUCGGAUCUGCACUUCCAGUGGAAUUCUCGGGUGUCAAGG; value = -0.122
Sequence = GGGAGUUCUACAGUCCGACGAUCGCAGGACGUAAAAACAAAUGGAAAUGCUUCGGAUAGUGGCAGGGGUGGGGGUUGCUAAGGAAAGGGUGGGAUGGGAGUGGGUAAAGAGUUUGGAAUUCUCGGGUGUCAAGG; value = 1.01
Sequence = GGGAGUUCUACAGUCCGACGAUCGUCCUGUGCUACACAUCGUAUGUACCGAAUCGGGUUUUUUUGGGUGGGUUUUUUUGGGAAAGUAUUAUGUUACGCCGUUCGGAUCUGCACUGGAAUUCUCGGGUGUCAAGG; value = 0.22
Sequence = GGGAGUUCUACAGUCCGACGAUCUCCUGUGCUACACAUCGUAUGUACCGAAUCAAACCCCCCCAAACCCCCAAAUUUUUAAAAAAGUAUUAUGUUACGCCGUUCGGAUCUGCAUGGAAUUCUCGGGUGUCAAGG; value = -0.0776
Sequence = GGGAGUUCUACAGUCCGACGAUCCUCAAGUCCUGUGCUACACAUCGUAUGUACCGAAUCGGAAAGGAGGAAAAAGGAAAGUAUUAUGUUACGCCGUUCGGAUCUGCACUUCCAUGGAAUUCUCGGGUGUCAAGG; value = -0.144
Sequence = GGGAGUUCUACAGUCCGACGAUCCCUCAAGUCCUGUGCUACACAUCGUAUGUACCGAAUCGGUGGUGGGGUGGGGAAAGUAUUAUGUUACGCCGUUCGGAUCUGCACUUCCAGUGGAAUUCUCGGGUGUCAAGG; value = -0.208

Study 5 — method: protein-binding microarray; form: double-stranded DNA, one strand shown; sample: in vitro; concentration: 940 nM top; notes: 60-bp whole probe; together with: salmon DNA 0.4 mg/ml; relative to: random background probes; reading: higher = stronger binding; endpoint: fitted relative affinity; constant ends, left off below: GCCTAGCAC … GTCTTGATTCGCTTGACGCTGCTG
Target: Interferon regulatory factor 5, full length, phosphomimetic (IRF5, Homo sapiens, UniProt Q13568-2, residues 1-514, S451D/S453D/S456D/S462D)
Sequence = CTTTGCCTCATCTTGCAGGTAGTGCTA; value = 0.23 z-score
Sequence = GACGATATCAGATTCGAGACGTGCTAG; value = -0.206 z-score
Sequence = TTAGGTCTCCCTTTCCTTTAGTGCTAG; value = 0.625 z-score
Sequence = TTAGGACTGGGGTATCGGTTTGTGCTA; value = 2.49 z-score
Sequence = TTAGGTTTCGCTTTCGGTTAGTGCTAG; value = 11.8 z-score
Sequence = TTAGATTTCGGGTATCGGTTAGTGCTA; value = 3.97 z-score
Sequence = TTAGGTTCCGTTTTCGGTTAGTGCTAG; value = 2.72 z-score
Sequence = TGAGTGAAAGGCCCATACATGTGCTAG; value = -0.373 z-score
Sequence = GACGGTTTCGACTTTCGGGTCGTGCTA; value = 8.26 z-score
Sequence = GACGGTTTCGACGTTCGGGACGTGCTA; value = 6.31 z-score
Sequence = TCACCTATCAGTTTAATACTGTGCTAG; value = 0.41 z-score
Sequence = TTAGGTTTCGATATCGGTTAGTGCTAG; value = 14.4 z-score
Sequence = GACGGTATCTTTTTCCTGACGTGCTAG; value = 1.01 z-score
Sequence = TTAGGTTTCAGTCTCGATTAGTGCTAG; value = 8.25 z-score
Sequence = GACGGTTTCGACTTTCGGGACGTGCTA; value = 7.38 z-score
Sequence = TTATATCTCAGTATCGATTAGTGCTAG; value = 5.88 z-score
Sequence = GACGAACTAAGACTGGAGACGTGCTAG; value = -0.883 z-score
Sequence = TTAGACATCGGGTTTCGATTAGTGCTA; value = 5.36 z-score
Sequence = GCTGTCATCGATTTCTTCCCGTGCTAG; value = 0.392 z-score
Sequence = GACGGACTGGCTTTCGGGACGTGCTAG; value = 0.0357 z-score
